Measurements gathered from unrelated publications.
Lines come from different studies, so protocols differ. “And” joins repeats or separate records; there may be more than shown.
Chain of UniProt O00311 (whole entry, looked up): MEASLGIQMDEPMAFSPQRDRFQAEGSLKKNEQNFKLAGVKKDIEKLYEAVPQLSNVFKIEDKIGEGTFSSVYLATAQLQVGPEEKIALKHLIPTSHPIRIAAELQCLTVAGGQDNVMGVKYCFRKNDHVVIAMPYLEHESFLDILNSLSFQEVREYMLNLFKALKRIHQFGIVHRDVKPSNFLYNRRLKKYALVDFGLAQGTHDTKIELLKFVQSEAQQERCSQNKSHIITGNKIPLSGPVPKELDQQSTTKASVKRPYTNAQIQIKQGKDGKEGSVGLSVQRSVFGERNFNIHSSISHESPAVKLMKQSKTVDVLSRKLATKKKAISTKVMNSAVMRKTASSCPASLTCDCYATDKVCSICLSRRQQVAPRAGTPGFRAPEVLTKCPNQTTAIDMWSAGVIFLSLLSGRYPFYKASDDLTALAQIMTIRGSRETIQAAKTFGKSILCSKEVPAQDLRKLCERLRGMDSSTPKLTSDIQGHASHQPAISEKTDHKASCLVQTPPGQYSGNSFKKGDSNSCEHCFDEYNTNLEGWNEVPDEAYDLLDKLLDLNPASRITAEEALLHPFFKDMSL

CN1CC[C@@H](c2c(O)cc(O)c3c(=O)cc(-c4ccc(C(F)(F)F)cc4Cl)oc23)[C@@H]1CO  patients with adverse event (measured: Fatigue; B-cell malignancies or AML; oral, 50 mg, continuous dosing): 0%
O=C1Nc2cc3[nH]nc(-c4ccncc4)c3cc2CN1Cc1ccccc1  patients with TEAE (measured: dermatitis acneiform; patients with advanced solid tumours; intravenous, dose not given, both schedules pooled): 18%
CC[C@H](C)[C@H](NC(=O)[C@H](Cc1ccccc1)NC(=O)[C@H](CCC(=O)O)NC(=O)[C@H](CCCNC(=N)N)NC(=O)[C@H](C)NC(=O)[C@H](C)NC(=O)[C@H](CCC(N)=O)NC(=O)[C@H](CCC(=O)O)NC(=O)[C@H](CCC(=O)O)NC(=O)[C@H](CC(C)C)NC(=O)[C@H](Cc1ccc(O)cc1)NC(=O)[C@H](CO)NC(=O)[C@H](CO)NC(=O)[C@@H](NC(=O)[C@H](CC(=O)O)NC(=O)[C@H](CO)NC(=O)[C@@H](NC(=O)[C@H](Cc1ccccc1)NC(=O)[C@@H](NC(=O)CNC(=O)[C@H](CCC(=O)O)NC(=O)[C@H](C)NC(=O)CCc1cnc[nH]1)[C@@H](C)O)[C@@H](C)O)C(C)C)C(=O)N[C@@H](C)C(=O)N[C@@H](Cc1c[nH]c2ccccc12)C(=O)N[C@@H](CC(C)C)C(=O)N[C@H](C(=O)N[C@@H](CCCNC(=N)N)C(=O)NCC(=O)N[C@@H](CCCNC(=N)N)C(=O)N[C@@H](CCCCNC(=O)COCCOCCNC(=O)COCCOCCNC(=O)CC[C@H](NC(=O)CCCCCCCCCCCCCCCCC(=O)O)C(=O)O)C(=O)NCC(=O)NCC(=O)N[C@@H](CO)C(=O)N[C@@H](CCSC)C(=O)N[C@H](C(=O)N[C@@H](CCCCNc1c(NCCCCCN(O)C(=O)CCC(=O)NCCCCCN(O)C(=O)CCC(=O)NCCCCCN(O)C(C)=O)c(=O)c1=O)C(=O)O)C(C)C)C(C)C [zirconium-89 labelled]  tissue uptake (ex vivo gamma counting; male Sprague-Dawley rats, brain; intravenous, 1 nmol, 72 h, mean of 3 animals): 0.0037 %ID/g
CCC[C@@](N)(CO)CCc1ccc(OCCCCCC(C)C)cc1  volume of distribution (Vz) (hound dogs, male; intravenous, 1.0 mg/kg, geometric mean): 18 L/kg
O=C(c1ccc(F)c(F)c1Nc1ccc(I)cc1F)N1CC(O)([C@@H]2CCCCN2)C1  onset day of second chorioretinopathy DLT (human; oral, 1.33 mg/kg): 22 days
CC[C@H](C)CCCCC(=O)N[C@@H](CCN)C(=O)N[C@H](C(=O)N[C@@H](CCN)C(=O)N[C@H]1CCNC(=O)[C@H]([C@@H](C)O)NC(=O)[C@H](CCN)NC(=O)[C@H](CCN)NC(=O)[C@H](CC(C)C)NC(=O)[C@@H](Cc2ccccc2)NC(=O)[C@H](CCN)NC1=O)[C@@H](C)O  steady-state concentration at 6 h (critically ill patients, plasma; dose not given, median, fifth infusion): 2.7 µg/mL
C[C@]1(CO)Cc2ncn(-c3ccc(C#N)c(Cl)c3)c2C(=O)O1  Tmax (healthy Japanese adults, plasma; 80 mg single dose): 1 h
C[C@]1(O)C[C@@](N)(c2ccc(-c3nc4n(c3-c3ccccc3)COc3ccncc3-4)cc2)C1  patients with grade ≥3 Anemia TEAE (human, advanced or metastatic solid tumours; dose not given, all patients): 5.9%
CNC(=O)c1cc(Oc2ccc(NC(=O)Nc3cc(C(C)(C)C)nn3-c3ccc4ncccc4c3)c(F)c2)ccn1  related SAE (intraocular pressure increased, NCI CTC v3.0; human patients; oral, 150 mg twice daily, tablet, dose at onset): 3%
CCCCCCCCCCCCCCCC(=O)N[C@@H](CCC(=O)NCCCC[C@H](NC(=O)[C@H](CC(=O)O)NC(=O)[C@H](CO)NC(=O)[C@@H](NC(=O)[C@H](Cc1ccccc1)NC(=O)[C@@H](NC(=O)CNC(=O)[C@H](CCC(N)=O)NC(=O)[C@H](CO)NC(=O)[C@@H](N)Cc1c[nH]cn1)[C@@H](C)O)[C@@H](C)O)C(=O)N[C@@H](CO)C(=O)N[C@@H](CCC(=O)O)C(=O)N[C@@H](Cc1ccc(O)cc1)C(=O)N[C@@H](CC(C)C)C(=O)N[C@@H](CC(=O)O)C(=O)N[C@@H](CO)C(=O)N[C@@H](CCC(=O)O)C(=O)N[C@@H](CCCNC(=N)N)C(=O)N[C@@H](C)C(=O)N[C@@H](CCCNC(=N)N)C(=O)N[C@@H](CC(=O)O)C(=O)N[C@@H](Cc1ccccc1)C(=O)N[C@H](C(=O)N[C@@H](C)C(=O)N[C@@H](Cc1c[nH]c2ccccc12)C(=O)N[C@@H](CC(C)C)C(=O)N[C@@H](CCC(=O)O)C(=O)N[C@@H](C)C(=O)NCC(=O)NCC(=O)O)C(C)C)C(=O)O  atrial fibrillation (human, CrCl ≥45 to <60 mL/min; sc, 100 µg single dose): 0%
CCCC(CCC)NC(=O)c1ccc2c(c1)OCO2  micronucleated PCEs (Swiss albino CD-1 mice, male, bone marrow; intraperitoneal, 175 mg/kg, 48 h): 0.1%
COc1ccc(C[C@@H]2NC(=O)[C@H]([C@@H](C)O)NC(=O)[C@@H]3[C@@H]4CCN3C(=O)[C@@H]3Cc5cn(c6ccc(F)cc56)CCCCCCN(Cc5ccc(cc5)CCNC(=O)[C@]5(C)CCCN5C2=O)C(=O)CCC(=O)N[C@@H](C)C(=O)N[C@H](CNC(=O)CCCCC[N+](C)(C)C)C(=O)N[C@@H](Cc2cccc(c2)CNC(=O)CO4)C(=O)N3)cc1  participants with adverse event (measured: Conjunctivitis; humans; concentration not given, Study-003): 0%
C[C@@H](NC(=O)N1C(=O)[C@H](Cc2ccnc(N)c2)[C@H]1C(=O)O)C1CCCCC1  related decreased WBC (healthy Chinese adults; continuous intravenous infusion, 0.6 mg/kg/h, 5.0 days): 0%
CC(C)[C@@H]1NC(=O)CNC(=O)[C@H](CC(N)=O)NC(=O)[C@H](CCCNC(=N)N)NC(=O)[C@H](Cc2ccc(O)cc2)NC(=O)[C@H](C(C)C)NC(=O)[C@@H](NC(=O)[C@@H](NC(=O)[C@H](CC(N)=O)NC(=O)[C@H](Cc2c[nH]c3ccccc23)NC(=O)[C@H](C)NC(=O)[C@H](Cc2ccccc2)NC(=O)CN)C(C)C)CSSC[C@@H](C(=O)N[C@@H](Cc2cnc[nH]2)C(=O)N[C@@H](CCCNC(=N)N)C(=O)N[C@@H](CCCNC(=N)N)C(=O)N[C@@H](C)C(=O)N[C@@H](CC(N)=O)C(N)=O)NC(=O)[C@H](C(C)C)NC(=O)[C@H](CCCNC(=N)N)NC1=O  peptide remaining (mouse mammary gland homogenate 50 mg/mL; 8.00 h, 37 °C): 45.8% and 50.1% and 40.4%
Cc1ccc2ccccc2c1  metabolism rate (pooled human liver microsomes; 0.25 µM, pH 7.4): 110 pmol/min/mg
Cn1cncc1-c1c(F)cncc1NC(=O)c1c(N)nn2cc(F)cnc12  grade ≥3 hyponatraemia incidence (human patients; oral, 220 mg once daily): 0%
COc1cc2c(Oc3ccc4[nH]c(C)cc4c3F)ccnc2cc1OCC1(N)CC1  grade 3 sinus bradycardia (paediatric recurrent refractory sarcoma; 12 mg): 0%
CC(=O)c1c(C)c2cnc(Nc3ccc(C4CCN(CCS(C)(=O)=O)CC4)cn3)nc2n(C2CCCC2)c1=O  MRT (human, plasma; oral, 50 mg, day 1 single dose): 7.91 h
N=C(N)NCCC[C@@H](NC(=O)[C@@H](N)Cc1ccccc1)C(=O)N[C@@H](Cc1ccccc1)C(=O)N[C@@H](CCCCN)C(N)=O  mean fraction excreted in urine (LC-MS; human; 5 mg, 11.83 h): 6.04%
NC1(C(=O)N[C@@H](CCO)c2ccc(Cl)cc2)CCN(c2nc[nH]c3nccc2-3)CC1  incidence of decreased appetite (metastatic CRPC patients; 400 mg b.i.d., any grade, treatment-related, together with: enzalutamide 160 mg daily): 42.9%
O=S(=O)(Nc1ccccc1)c1ccc(NC(=S)Nc2ccccc2)cc1  blood cell fraction (measured: RDW; female mouse, blood; oral, 20 mg/kg daily, 14 days): 16.6%
CCC1CCCCN1CCCNC(=O)c1sc2nc(C)cc(C)c2c1-n1cccc1 (stereo not shown)  cytotoxicity efficacy (Vero-E6; CellTiter-Glo ATP; concentration not given, 72 h, retest 8-point duplicates; baseline: DMSO 0%, hyamine -100%, more negative, more toxic): 0%
C[C@@H](O)[C@@H]1NC(=O)CNC(=O)[C@H](Cc2c[nH]cn2)NC(=O)[C@H](Cc2c[nH]c3ccccc23)NC(=O)[C@H](CC(N)=O)NC(=O)CNC(=O)C[C@@H](C(=O)N[C@@H](Cc2c[nH]c3ccccc23)C(=O)N[C@@H](Cc2ccccc2)C(=O)N[C@@H](Cc2ccccc2)C(=O)N[C@@H](CC(N)=O)C(=O)N[C@@H](Cc2ccc(O)cc2)C(=O)N[C@@H](Cc2ccc(O)cc2)C(=O)N[C@@H](Cc2c[nH]c3ccccc23)C(=O)O)NC(=O)[C@@H]2CCCN2C(=O)[C@H](CO)NC1=O  recovery (rapid equilibrium dialysis; human plasma; 20 µM, time not given): 86.2%
COc1ccc2c(c[n+](C)c3c4cc5c(cc4ccc23)OCO5)c1OC  CL/F (LC-MS/MS; rat, plasma; dose not given): 2.25 mL/min/kg
c1csc(CNc2cc[nH]n2)c1  micronucleated PCE per 1000 PCE (micronucleus; CD-1 mouse Hsd:ICR(CD-1), male, bone marrow; oral, 250 mg/kg/day, 3 days): 1
CO[C@H]1C[C@@H]2CC[C@@H](C)[C@@](O)(O2)C(=O)C(=O)N2CCCC[C@H]2C(=O)O[C@H]([C@H](C)C[C@@H]2CC[C@@H](OC(=O)NCCOCCOCCOCCOCCOCCOCCOCCOCCC(=O)N3CCc4cc(Cn5nc(-c6ccc7oc(N)nc7c6)c6c(N)ncnc65)ccc4C3)[C@H](OC)C2)C[C@@H](O)[C@H](C)/C=C(\C)[C@@H](O)[C@@H](OC)C(=O)[C@H](C)C[C@H](C)/C=C/C=C/C=C/1C  TRAE incidence (phase 1 dose escalation, measured: mucositis; advanced solid tumour patients; intravenous, 10 mg weekly, grade ≥3): 12.5%
CCN1[C@@H](C(=O)NC23CCC(C(=O)O)(CC2)CC3)[C@H](c2cccc(Cl)c2F)[C@]2(C(=O)Nc3cc(Cl)ccc32)C12CCCCC2  any-grade leukopenia incidence (patients with advanced solid tumours; oral, dose not given, all doses): 57.1%
COc1ccc(-c2c(-c3ccc(C#N)c(F)c3)nc(N3CCC(N)CC3)n(C)c2=O)cc1F  treatment-related adverse event incidence (measured: Fatigue/asthenia; human patients; oral, dose not given, grade 3 to 4, dose escalation, NG): 2%
C[C@H]1CN(c2n[nH]c3nc(N[C@H]4CC[C@H](NS(=O)(=O)CCC(F)(F)F)CC4)ncc23)CCO1  relative abundance (Cell division cycle 7-related protein kinase (CDC7, Homo sapiens, UniProt O00311); inhibitor, Kinobeads competition profiling; 0.8 µM; baseline: vehicle): 1.19
CC(Nc1nc(N2CCNCC2C)nc2ccccc12)c1ccccc1 (stereo not shown)  maximum response (Vero-E6; CellTiter-Glo ATP; 72 h, retest 8-point duplicates; baseline: DMSO 0%, hyamine -100%, more negative, more toxic): -10.1%
CC(C)CC(=O)OC[C@H]1O[C@@](C#N)(c2ccc3c(N)ncnn23)[C@H](O)[C@@H]1O  fraction bound (monkey plasma; 9 µM): 0.683
